Assay results from different studies.
Every numbered part comes from another study and shows a few of its results, in no order.
Sequence of UniProt Q9UPZ9 (whole entry, looked up): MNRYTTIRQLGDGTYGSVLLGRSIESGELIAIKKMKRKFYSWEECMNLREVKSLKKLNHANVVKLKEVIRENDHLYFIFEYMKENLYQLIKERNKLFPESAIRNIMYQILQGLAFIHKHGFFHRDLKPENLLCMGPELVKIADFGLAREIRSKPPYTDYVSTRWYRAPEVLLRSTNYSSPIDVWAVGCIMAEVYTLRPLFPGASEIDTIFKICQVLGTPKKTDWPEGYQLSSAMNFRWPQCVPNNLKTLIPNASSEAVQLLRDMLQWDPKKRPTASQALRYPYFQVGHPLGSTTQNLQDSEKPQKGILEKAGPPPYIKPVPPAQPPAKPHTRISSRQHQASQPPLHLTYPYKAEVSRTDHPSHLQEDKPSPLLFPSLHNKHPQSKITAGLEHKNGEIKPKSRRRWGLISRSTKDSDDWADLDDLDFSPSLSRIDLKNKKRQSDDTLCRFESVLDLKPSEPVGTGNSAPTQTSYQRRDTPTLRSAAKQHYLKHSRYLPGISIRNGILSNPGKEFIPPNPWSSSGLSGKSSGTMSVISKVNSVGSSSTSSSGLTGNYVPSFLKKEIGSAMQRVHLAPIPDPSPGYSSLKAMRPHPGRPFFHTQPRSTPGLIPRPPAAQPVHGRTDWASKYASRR
Sequence of UniProt Q8IW41 (whole entry, looked up): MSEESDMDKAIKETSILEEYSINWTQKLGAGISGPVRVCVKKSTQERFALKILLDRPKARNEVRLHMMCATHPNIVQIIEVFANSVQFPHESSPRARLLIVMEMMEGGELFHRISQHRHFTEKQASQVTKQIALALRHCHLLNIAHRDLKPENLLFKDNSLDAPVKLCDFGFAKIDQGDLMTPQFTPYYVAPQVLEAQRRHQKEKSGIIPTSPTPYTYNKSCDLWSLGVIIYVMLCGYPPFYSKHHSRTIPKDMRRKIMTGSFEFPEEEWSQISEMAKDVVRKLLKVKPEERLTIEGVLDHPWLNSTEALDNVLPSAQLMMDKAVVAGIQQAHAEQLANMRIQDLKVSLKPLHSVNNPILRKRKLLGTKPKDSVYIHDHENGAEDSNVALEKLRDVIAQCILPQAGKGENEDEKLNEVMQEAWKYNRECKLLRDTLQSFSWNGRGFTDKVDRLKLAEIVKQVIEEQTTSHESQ
Sequence of UniProt P22888 (whole entry, looked up): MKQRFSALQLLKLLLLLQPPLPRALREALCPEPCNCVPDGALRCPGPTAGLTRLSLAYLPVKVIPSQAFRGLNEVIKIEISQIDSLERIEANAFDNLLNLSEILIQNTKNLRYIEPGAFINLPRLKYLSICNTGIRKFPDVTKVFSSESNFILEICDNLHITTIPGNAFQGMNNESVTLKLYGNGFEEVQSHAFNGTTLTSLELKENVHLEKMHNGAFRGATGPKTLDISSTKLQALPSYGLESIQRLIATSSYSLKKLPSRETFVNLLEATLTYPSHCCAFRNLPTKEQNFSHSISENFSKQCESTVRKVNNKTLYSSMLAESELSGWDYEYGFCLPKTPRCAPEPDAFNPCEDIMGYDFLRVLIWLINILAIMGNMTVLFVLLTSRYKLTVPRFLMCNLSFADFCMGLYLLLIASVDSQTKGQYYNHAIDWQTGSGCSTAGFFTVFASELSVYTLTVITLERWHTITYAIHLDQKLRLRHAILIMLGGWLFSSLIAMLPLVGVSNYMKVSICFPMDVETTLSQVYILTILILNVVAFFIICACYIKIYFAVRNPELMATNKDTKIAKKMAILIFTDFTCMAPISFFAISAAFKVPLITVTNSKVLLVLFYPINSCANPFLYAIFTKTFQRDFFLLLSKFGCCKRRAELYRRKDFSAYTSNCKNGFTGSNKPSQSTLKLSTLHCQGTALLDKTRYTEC
Sequence of UniProt P04201 (whole entry, looked up): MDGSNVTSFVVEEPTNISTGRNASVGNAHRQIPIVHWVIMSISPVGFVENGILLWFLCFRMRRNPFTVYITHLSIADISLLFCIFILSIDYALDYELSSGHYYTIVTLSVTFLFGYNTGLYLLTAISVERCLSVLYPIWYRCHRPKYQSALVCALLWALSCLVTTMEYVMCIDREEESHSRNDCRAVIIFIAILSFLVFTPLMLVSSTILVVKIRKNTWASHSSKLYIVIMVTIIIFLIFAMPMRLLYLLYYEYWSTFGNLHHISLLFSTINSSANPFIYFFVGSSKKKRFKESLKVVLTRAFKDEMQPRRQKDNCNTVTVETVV
Sequence of UniProt Q9UK32 (whole entry, looked up): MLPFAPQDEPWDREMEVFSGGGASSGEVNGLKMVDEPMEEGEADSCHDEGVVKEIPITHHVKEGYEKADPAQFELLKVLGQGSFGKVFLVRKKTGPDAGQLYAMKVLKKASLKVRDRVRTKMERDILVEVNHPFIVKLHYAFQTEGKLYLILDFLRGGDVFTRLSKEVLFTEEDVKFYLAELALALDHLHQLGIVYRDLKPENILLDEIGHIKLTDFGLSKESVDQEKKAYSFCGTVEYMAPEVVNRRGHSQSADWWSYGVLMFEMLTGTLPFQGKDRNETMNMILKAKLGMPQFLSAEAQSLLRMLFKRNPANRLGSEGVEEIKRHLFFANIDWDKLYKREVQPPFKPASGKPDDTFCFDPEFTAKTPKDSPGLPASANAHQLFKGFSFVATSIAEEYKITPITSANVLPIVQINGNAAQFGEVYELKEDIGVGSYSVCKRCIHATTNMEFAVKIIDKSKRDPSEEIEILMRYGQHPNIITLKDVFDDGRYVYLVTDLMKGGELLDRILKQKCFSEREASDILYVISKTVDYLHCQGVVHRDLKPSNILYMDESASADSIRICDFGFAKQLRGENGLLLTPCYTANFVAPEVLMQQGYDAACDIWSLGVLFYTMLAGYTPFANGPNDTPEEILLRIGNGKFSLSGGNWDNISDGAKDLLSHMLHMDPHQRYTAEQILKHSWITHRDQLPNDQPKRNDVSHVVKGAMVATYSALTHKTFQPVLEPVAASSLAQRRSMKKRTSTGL
Sequence of UniProt P10721 (whole entry, unmodified, looked up): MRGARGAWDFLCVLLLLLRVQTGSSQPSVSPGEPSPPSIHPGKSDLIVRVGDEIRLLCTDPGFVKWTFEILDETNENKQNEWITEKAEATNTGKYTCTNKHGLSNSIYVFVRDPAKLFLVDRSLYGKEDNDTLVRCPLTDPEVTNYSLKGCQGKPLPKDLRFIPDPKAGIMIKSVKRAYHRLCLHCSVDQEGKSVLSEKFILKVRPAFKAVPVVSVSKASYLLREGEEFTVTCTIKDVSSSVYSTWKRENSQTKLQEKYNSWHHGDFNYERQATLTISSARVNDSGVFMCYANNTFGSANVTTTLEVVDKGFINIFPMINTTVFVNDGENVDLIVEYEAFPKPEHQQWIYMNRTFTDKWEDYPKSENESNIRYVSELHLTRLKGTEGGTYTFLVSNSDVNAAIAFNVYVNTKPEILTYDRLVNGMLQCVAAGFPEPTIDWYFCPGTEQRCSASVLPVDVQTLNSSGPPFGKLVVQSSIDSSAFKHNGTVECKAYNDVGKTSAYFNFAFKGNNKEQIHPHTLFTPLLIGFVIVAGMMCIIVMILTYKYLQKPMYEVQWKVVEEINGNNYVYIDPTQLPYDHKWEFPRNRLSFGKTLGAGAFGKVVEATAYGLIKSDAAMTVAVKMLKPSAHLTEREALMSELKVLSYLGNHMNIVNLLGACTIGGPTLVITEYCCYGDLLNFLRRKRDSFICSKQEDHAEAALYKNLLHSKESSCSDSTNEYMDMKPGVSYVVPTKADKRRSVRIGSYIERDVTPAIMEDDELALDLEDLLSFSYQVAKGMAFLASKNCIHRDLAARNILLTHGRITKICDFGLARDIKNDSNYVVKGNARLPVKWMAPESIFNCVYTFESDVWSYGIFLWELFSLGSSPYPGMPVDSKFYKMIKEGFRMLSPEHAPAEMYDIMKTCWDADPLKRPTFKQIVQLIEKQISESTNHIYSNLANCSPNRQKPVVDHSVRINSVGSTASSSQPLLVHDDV
Sequence of UniProt O75582 (whole entry, looked up): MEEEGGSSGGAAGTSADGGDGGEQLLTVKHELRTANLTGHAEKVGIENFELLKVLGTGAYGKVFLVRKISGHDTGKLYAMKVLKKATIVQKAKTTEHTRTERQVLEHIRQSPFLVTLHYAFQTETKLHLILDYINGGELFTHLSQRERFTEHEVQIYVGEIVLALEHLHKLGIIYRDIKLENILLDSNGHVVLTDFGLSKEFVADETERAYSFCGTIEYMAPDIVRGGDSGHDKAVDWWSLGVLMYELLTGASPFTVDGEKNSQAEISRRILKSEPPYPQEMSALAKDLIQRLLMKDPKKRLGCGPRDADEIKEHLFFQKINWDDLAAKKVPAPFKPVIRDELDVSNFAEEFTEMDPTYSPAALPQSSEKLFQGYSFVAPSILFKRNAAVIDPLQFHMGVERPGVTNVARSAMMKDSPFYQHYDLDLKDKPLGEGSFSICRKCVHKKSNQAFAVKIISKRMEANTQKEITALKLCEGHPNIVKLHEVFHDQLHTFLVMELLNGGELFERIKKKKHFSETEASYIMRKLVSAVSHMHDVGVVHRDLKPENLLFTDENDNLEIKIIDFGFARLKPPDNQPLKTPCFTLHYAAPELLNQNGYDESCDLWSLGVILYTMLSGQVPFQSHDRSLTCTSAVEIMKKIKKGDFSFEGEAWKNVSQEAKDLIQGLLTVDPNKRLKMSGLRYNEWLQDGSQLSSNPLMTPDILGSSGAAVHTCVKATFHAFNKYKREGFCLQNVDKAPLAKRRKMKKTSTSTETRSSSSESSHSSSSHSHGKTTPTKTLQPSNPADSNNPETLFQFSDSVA
Sequence of UniProt Q00534 (whole entry, looked up): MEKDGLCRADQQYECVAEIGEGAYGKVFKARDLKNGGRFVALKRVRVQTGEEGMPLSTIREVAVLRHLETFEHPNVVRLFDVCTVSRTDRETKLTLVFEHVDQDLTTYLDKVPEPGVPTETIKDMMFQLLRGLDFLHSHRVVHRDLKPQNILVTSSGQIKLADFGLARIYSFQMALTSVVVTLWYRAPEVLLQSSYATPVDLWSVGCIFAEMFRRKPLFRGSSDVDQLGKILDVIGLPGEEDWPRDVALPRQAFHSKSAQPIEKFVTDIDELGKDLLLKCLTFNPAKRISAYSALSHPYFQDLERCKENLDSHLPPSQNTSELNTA

Study 1
Structure (SMILES): CC(C)(C)n1nc(Cc2cccc3ccccc23)c2c(N)ncnc21
Effect on: enzyme activity
Action: inhibitor
Tested at: 0.5 µM
Baseline: control
For STK17A (Homo sapiens, UniProt Q9UEE5): remaining activity read 93.3%.
For EPHB1 (Homo sapiens, UniProt P54762): remaining activity read 47.7%.
The remaining activity was 94.2% (RPS6KA6 (Homo sapiens, UniProt Q9UK32)).
BLK (Homo sapiens, UniProt P51451) — remaining activity: 95.5%.
HIPK2 (Homo sapiens, UniProt Q9H2X6) — remaining activity: 102%.
It gave 101% for remaining activity (SRMS (Homo sapiens, UniProt Q9H3Y6)).
For Cyclin-dependent kinase 6, with cyclin D3 (CDK6, Homo sapiens, UniProt Q00534): remaining activity read 97.3%.
The remaining activity was 88.9% (RPS6KA5 (Homo sapiens, UniProt O75582)).

Study 2
Compound: C[C@@H](c1cccc(C#N)c1)n1cc(Cl)cc(C(N)=O)c1=N
Technique: competition with immobilised ligand
Tested at: 1 µM
It gave 81% for remaining binding (CILK1 (Homo sapiens, UniProt Q9UPZ9); binding).
MAP3K13 (Homo sapiens, UniProt O43283); cell-free assay — remaining binding: 100%.
The remaining binding was 100% (KIT (Homo sapiens, UniProt P10721, A829P); cell-free assay).
The remaining binding was 100% (STK35 (Homo sapiens, UniProt Q8TDR2); cell-free assay).
The remaining binding was 100% (EIF2AK2 (Homo sapiens, UniProt P19525); cell-free assay).
MAPKAPK5 (Homo sapiens, UniProt Q8IW41); cell-free assay — remaining binding: 93%.
The remaining binding was 83% (ALK (Homo sapiens, UniProt Q9UM73); cell-free assay).
For SYK (Homo sapiens, UniProt P43405); cell-free assay: remaining binding read 96%.
For PRPF4B (Homo sapiens, UniProt Q13523); cell-free assay: remaining binding read 100%.
It gave 99% for remaining binding (SBK1 (Homo sapiens, UniProt Q52WX2); cell-free assay).
PDGFRB (Homo sapiens, UniProt P09619); cell-free assay — remaining binding: 84%.

Study 3
Compound: CCN(c1nc(N)c(C(=O)N=C(N)N)nc1Cl)C(C)C
Effect on: β-arrestin recruitment
Action: agonist
Technique: PRESTO-Tango
Tested at: 10 µM
Baseline: untreated
The “fold over basal” was 1.73 (Proto-oncogene Mas (Homo sapiens, UniProt P04201)).
HTR7 (Homo sapiens, UniProt P34969) — “fold over basal”: 0.49.
The “fold over basal” was 1.01 fold (GRM7 (Homo sapiens, UniProt Q14831)).
LHCGR (Homo sapiens, UniProt P22888) — “fold over basal”: 1.16 fold.
It gave 0.96 for “fold over basal” (C3AR1 (Homo sapiens, UniProt Q16581)).

Mixed results
CC(=O)N[C@@H](Cc1c[nH]c2ccccc12)C(=O)N[C@@H](CCC(=O)C=[N+]=[N-])C(=O)OC(C)C: concentration “not detected” (C57BL/6 CES1-/- mice, EL4 tumour-bearing, GI tissue; dose not given).
